Assay results of several laboratories.
Parts stem from different laboratories: compare values within a part only.

Set 1
Target: TAR DNA-binding protein 43, full length, His tag (TARDBP, Homo sapiens, UniProt Q13148, residues 1-414)
Method: RNA Bind-n-Seq
Form: RNA
Sample: in vitro
Concentration: 20 nM
Setting: 6-mer, flanks averaged, single round
Together with: 150 mM LiCl
Relative to: input library
Reading: higher = stronger binding
`ACGCCA` — result for “6-mer enrichment (R)”: 0.875.
For `UCACAU`, “6-mer enrichment (R)” read 0.861.
`CAGGAA` — result for “6-mer enrichment (R)”: 0.852.
Under “6-mer enrichment (R)”, `AUGGAG` is recorded as 1.1.
`CGGUCA` — result for “6-mer enrichment (R)”: 0.85.
`UAUUCC` — result for “6-mer enrichment (R)”: 0.931.
Under “6-mer enrichment (R)”, `CACGCC` is recorded as 0.92.
`AACAAU` — result for “6-mer enrichment (R)”: 1.06.
Under “6-mer enrichment (R)”, `UGGCCU` is recorded as 1.02.
Under “6-mer enrichment (R)”, `CAUCAG` is recorded as 0.8.
`CCUAUU`: “6-mer enrichment (R)” 1.02.

Set 2
Target: Interferon regulatory factor 7, full length, phosphomimetic (IRF7, Homo sapiens, UniProt Q92985, residues 1-503, S101K/S471D/S472D/S475D/S476D/S477D/S483D/S484D/S487D)
Chain of UniProt Q92985 (whole entry, unmodified, looked up): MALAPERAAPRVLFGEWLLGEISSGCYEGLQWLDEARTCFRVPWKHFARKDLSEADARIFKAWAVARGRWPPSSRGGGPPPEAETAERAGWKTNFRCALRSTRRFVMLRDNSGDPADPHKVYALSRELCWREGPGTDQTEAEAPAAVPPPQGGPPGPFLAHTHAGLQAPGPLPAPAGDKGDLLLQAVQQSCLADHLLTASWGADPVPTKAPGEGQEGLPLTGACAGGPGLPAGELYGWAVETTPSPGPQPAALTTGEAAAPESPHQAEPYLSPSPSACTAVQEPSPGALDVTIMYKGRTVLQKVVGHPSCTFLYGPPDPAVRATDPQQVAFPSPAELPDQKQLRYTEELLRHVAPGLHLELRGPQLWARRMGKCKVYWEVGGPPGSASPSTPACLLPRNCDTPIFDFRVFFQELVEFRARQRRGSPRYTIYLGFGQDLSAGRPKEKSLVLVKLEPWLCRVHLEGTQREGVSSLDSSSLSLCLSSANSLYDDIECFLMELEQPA
Method: protein-binding microarray
Form: double-stranded DNA, one strand shown
Sample: in vitro
Concentration: 250 nM
Setting: 60-bp whole probe
Together with: salmon DNA 0.4 mg/ml
Relative to: random background probes
Reading: higher = stronger binding
Shared flanks, not repeated: GCCTAGCAC … GTCTTGATTCGCTTGACGCTGCTG
For `ATTGCTTCCTCTTTCACTGCGTGCTAG`, the log fluorescence was 1.25 z-score.
With `GCCGGTCTCCTTATCCTGACGTGCTAG` the log fluorescence was 0.296 z-score.
For `TCAGCTCTGTTGCCTGGTACTGTGCTA`, the log fluorescence was -0.547 z-score.
`GATTGGTTGAACATGAACTTGTGCTAG` gave a log fluorescence of 0.305 z-score.
For `TTAGATCTCCTTTTCCTTTAGTGCTAG`, the log fluorescence was 1.03 z-score.
The log fluorescence of `GACGGTATCGGATTTCGGGACGTGCTA` is reported as 1.05 z-score.
`TCAGCTTACAATATAAAACTGTGCTAG` has a log fluorescence of 0.0424 z-score.
For `CACTGCATCTGATTTCTCAAAGTGCTA`, the log fluorescence was 0.104 z-score.

Set 3
Target: Prothrombin, mature alpha-thrombin (F2, Homo sapiens, UniProt P00734)
Method: aptamer microarray, sandwich
Form: DNA with 2'F-ANA
Sample: in vitro
Concentration: 200 nM
Setting: whole 15-mer aptamer, many near background
Together with: Cy3 exosite-II aptamer, 400 nM
Reading: higher = stronger binding
Oligonucleotide: GGTTGGTGTGGTTGG
`2'F-ANA at 1 2 3 7 13 15` — result for “mean fluorescence intensity”: 208 a.u.
Under “mean fluorescence intensity”, `2'F-ANA at 1 3 6 9 10 12 14 15` is recorded as 89.4 a.u.
`2'F-ANA at 3 4 5 7 9 10 11`: “mean fluorescence intensity” 56.2 a.u.
For `2'F-ANA at 1 3 4 6 7 8 10 11 12 13 14`, “mean fluorescence intensity” read 52.9 a.u.
For `2'F-ANA at 1 2 3 8 9 12 14 15`, “mean fluorescence intensity” read 102 a.u.
Under “mean fluorescence intensity”, `2'F-ANA at 1 4 6 7 10 11` is recorded as 47 a.u.
For `2'F-ANA at 1 3 4 5 6 8 10 12 13 14 15`, “mean fluorescence intensity” read 128 a.u.
For `2'F-ANA at 1 3 4 6 7 10`, “mean fluorescence intensity” read 61.6 a.u.
`2'F-ANA at 1 2 4 5 7 10 11` — result for “mean fluorescence intensity”: 62.2 a.u.
`2'F-ANA at 3 5 6 9 10 11 13 14 15` — result for “mean fluorescence intensity”: 99.3 a.u.
`2'F-ANA at 3 4 9 10 11 12`: “mean fluorescence intensity” 332 a.u.
`2'F-ANA at 6 7 8 10 12 13 14 15`: “mean fluorescence intensity” 107 a.u.

Single results of other studies
`PhoQ, residues 284 288 289 292 302 303 TNSAEL` has a fold induction of 9.05 (PhoP, residues 12 14 15 18 19 NMSSL (Escherichia coli, UniProt P23836); Sort-seq, measured: YFP reporter; E. coli; PhoQ-PhoP variant library, together with: 10 µM Mg2+; relative to: high Mg2+ state, higher = stronger signaling).

For quick reference, copied from above (set 3):
Under “mean fluorescence intensity”, `2'F-ANA at 1 4 6 7 10 11` is recorded as 47 a.u.
For `2'F-ANA at 1 2 3 8 9 12 14 15`, “mean fluorescence intensity” read 102 a.u.
`2'F-ANA at 3 4 9 10 11 12`: “mean fluorescence intensity” 332 a.u.
